Results gathered from unrelated publications.
Compare with care: the assays were run in different laboratories. ± marks the error that the study gave.

Substance	organism	test	system	conditions	IC50
C=C[C@]1(CO)O[C@@H](n2cnc3c(N)nc(N)nc32)C[C@@H]1O	Human immunodeficiency virus 1	cytopathic effect, MTT	MT4	–	0.0043 µM
COc1ccc(CCN(C)CCCC(C#N)(c2ccc(OC)c(OC)c2)C(C)C)cc1OC (centres unmarked)	Plasmodium falciparum	parasite proliferation, SYBR Green	3D7	72 h	3.8 µM
O=C(O)[C@H]1O[C@@H](Oc2cc3oc(-c4ccc(O)cc4)cc(=O)c3c(O)c2O)[C@H](O)[C@@H](O)[C@@H]1O	Betacoronavirus 1	viral replication	HRT-18, OC43	24 h	63.3 µM
O=Cc1cn(Cc2cccc(Cl)c2)c2ccc([N+](=O)[O-])cc12	Trypanosoma brucei gambiense	–	trypomastigotes, IL1922	–	> 79 µM
CC[C@H](CO)Nc1nc(NCc2ccccc2O)c2ncn(C(C)C)c2n1	Human alphaherpesvirus 1	viral replication, plaque reduction	HFFF, 17 thymidine kinase-deleted, GFP	3 days	5.3 ± 0.9 µM
CCCCCCCCCCCCCCC[C@@H](O)C[N+](C)(C)CCO	Candida albicans	biofilm formation, XTT	SC5314	24 h, 37 °C	4.27 µM
Cc1cccc2c1C(=O)C(O)=C(CC(C)CCCCCC(F)(F)F)C2=O (centres unmarked)	Plasmodium berghei	parasite growth, luciferase	Huh-7	48 h, liver stage	4.45 µM
O=C(Cn1cncn1)c1ccc(-c2ccccc2)cc1	Trypanosoma cruzi	parasite growth	Tulahuen C4 amastigotes	–	4 to 60 µM
CCCCCOc1c(OC)cc(NC(C)CCCNC(=O)C(N)CCCN)c2nc(C(C)(C)C)ccc12 (centres unmarked)	Staphylococcus aureus	bacterial growth	MRSA ATCC 33591	–	> 20 µg/mL
C[C@@]1(O)[C@H](O)[C@@H](CO)O[C@H]1n1ccc(N)nc1=O	Norwalk virus	viral replication, inhibitor	RAW264.7	–	15.7 µM
C#C[C@]1(CO)O[C@@H](n2cnc3c(=O)[nH]c(N)nc32)C[C@@H]1O	Human immunodeficiency virus 1	cytopathic effect, MTT	MT4	–	0.0016 µM
O=C(O)COc1c2c(c(OCC(=O)O)c3c1C1CC3c3cc4c(cc31)C1CC4c3ccccc31)C1CC2c2cc3c(cc21)C1CC3c2ccccc21	measles virus	viral infection, flow cytometry	A549, vaccine strain GFP	2 days, virus pre-incubated 30 min 37 °C	70.4 µM
Nc1nc(N)nc(NC2CC2)n1	Lucilia cuprina	larval weight gain	LS strain, larvae on impregnated cotton wool	24 h	1.27 µg
CC(O)CC(C)(C)N.Oc1c(Cl)c(Cl)c(Cl)c(Cl)c1Cl	Candida albicans	biofilm formation, XTT	SC5314	24 h, 37 °C	3.29 µM
O=Cc1cn(Cc2ccc(F)cc2)c2ccc([N+](=O)[O-])cc12	Trypanosoma brucei gambiense	–	trypomastigotes, IL1922	–	22.4 ± 5.03 µM
N#C[C@]1(CO)O[C@@H](n2cnc3c(N)nc(N)nc32)C[C@@H]1O	Hepatitis B virus	Southern blot	Huh-7 transfected, entecavir-resistant L180M/S202G/M204V	–	0.0696 µM
C[C@@H]1CC[C@H]2[C@@H](C)C(=O)O[C@@H]3O[C@@]4(C)CC[C@@H]1[C@]32OO4	Leishmania tarentolae	viability, resazurin	promastigotes, YEM/PBS	48 h, 26 °C, together with: 10% FCS	3.23 ± 1.92 µM
meglumine antimoniate	Leishmania braziliensis	–	–	promastigotes	25.6 ± 1.7 µM
guanidine hydrochloride	coxsackievirus B3	cytopathic effect	HeLa, 97927 I1207M	48 h	682 µM
O=c1cc(-c2ccc(O)c(O)c2)oc2cc(O)cc(O)c12	human cytomegalovirus	viral replication, titre reduction	HEL fibroblasts, Towne	–	3.6 ± 0.7 µM
CC(=NNC(=S)N1CCC1)c1ccccn1	Candida albicans	biofilm formation, XTT	SC5314	24 h, 37 °C	2.3 µM
CCCCCOc1c(OC)cc(NC(C)CCCNC(=O)C(N)Cc2ccccc2)c2nc(C(C)(C)C)ccc12 (centres unmarked)	Staphylococcus aureus	microbial growth	ATCC33591 MRSA	drug-resistant strain	8.23 µg/mL
O=c1c(-c2ccc(O)cc2)coc2cc(O)ccc12	Human betaherpesvirus 5	viral replication, absorbance	human Fibroblast	72 h	> 40 µM
CCCCCCCC(F)(P(=O)(O)O)P(=O)(O)O	Trypanosoma cruzi	–	Vero cells, intracellular amastigotes	day 3 post-infection	> 10 µM

Substance	organism	test	system	conditions	IC50
CCCCCCC(C)CC1=C(O)C(=O)c2ccccc2C1=O (centres unmarked)	Plasmodium falciparum	parasite growth, [3H]hypoxanthine incorporation	W2 chloroquine-resistant, human erythrocytes	–	0.214 µM
C[C@]12CC[C@H](O)C[C@H]1CC[C@@H]1[C@@H]2CC[C@]2(C)[C@@H](C3=CC(=O)OC3)CC[C@]12O	transmissible gastroenteritis virus	viral replication, immunofluorescence	ST cells	6 h post-infection, pretreated 1 h	0.622 ± 0.057 µM
O=C1C[C@@H](c2ccc(O)cc2)Oc2cc(O)cc(O)c21	Human betaherpesvirus 5	viral replication, absorbance	human Fibroblast	72 h	32 µM
CCCCCOc1c(OC)cc(NC(C)CCCNC(=O)C(N)CCCNC(=N)N)c2nc(C(C)(C)C)ccc12 (centres unmarked)	Staphylococcus aureus	microbial growth	ATCC33591 MRSA	drug-resistant strain	7.27 µg/mL
CO[C@H]1C[C@H](O[C@H]2CC[C@@]3(C)[C@H](CC[C@@H]4[C@@H]3CC[C@]3(C)[C@@H](C5=CC(=O)OC5)[C@@H](OC(C)=O)C[C@]43O)C2)O[C@@H](C)[C@@H]1O	transmissible gastroenteritis virus	viral replication, immunofluorescence	ST cells	6 h post-infection, pretreated 1 h	0.166 ± 0.008 µM
Nc1nc(O)c2ncn(COC(CO)CO)c2n1	human cytomegalovirus	viral replication, titre reduction	HEL fibroblasts, Towne	–	2 ± 0.3 µM
CCCCCCCCOc1c(OC)cc(NC(C)CCCNC(=O)C(N)Cc2cc3ccccc3[nH]2)c2nc(C(C)(C)C)ccc12 (centres unmarked)	Staphylococcus aureus	microbial growth	ATCC33591 MRSA	drug-resistant strain	8.31 µg/mL
CC[C@H](C)[C@H](NC(=O)[C@H](CC(C)C)NC(=O)[C@H](CCC(=O)O)NC(=O)[C@H](CCC(=O)O)NC(=O)[C@@H](NC(=O)[C@H](CCCCN)NC(=O)[C@H](CCCCN)NC(=O)[C@@H](NC(=O)[C@H](Cc1ccc(O)cc1)NC(=O)[C@H](CCC(=O)O)NC(=O)[C@H](CCC(=O)O)NC(=O)[C@@H](NC(=O)[C@H](CCCCN)NC(=O)[C@H](CCCCN)NC(=O)[C@H](CC(=O)O)NC(=O)[C@H](Cc1c[nH]c2ccccc12)NC(=O)[C@H](CCC(=O)O)NC(=O)[C@H](CCC(=O)O)NC(=O)[C@H](Cc1c[nH]c2ccccc12)NC(=O)[C@@H](NC(=O)[C@@H](N)CCSC)[C@@H](C)O)[C@@H](C)CC)[C@@H](C)O)[C@@H](C)CC)C(=O)N[C@@H](CCCCN)C(=O)N[C@@H](CCCCN)C(=O)N[C@@H](CO)C(=O)O	HIV-1	virus neutralization	DU422	–	0.0148 ± 0.0003 µM
CC(C)C12C=CC(C)(CC1)OO2 (centres unmarked)	Leishmania tarentolae	viability, resazurin	promastigotes, Schneider's medium	48 h, 26 °C, together with: 6 µM hemin	40.9 ± 10 µM
CCCCOc1c(OC)cc(NC(C)CCCN)c2nc(C(C)(C)C)cc(C)c12 (centres unmarked)	Staphylococcus aureus	microbial growth	ATCC33591 MRSA	drug-resistant strain	2.96 µg/mL
Nc1cccc(S(N)(=O)=O)c1	Candida albicans	biofilm formation, XTT	SC5314	24 h, 37 °C	3.45 µM
CC[C@]1(CO)O[C@@H](n2cnc3c(=O)[nH]c(N)nc32)C[C@@H]1O	Human immunodeficiency virus 1	cytopathic effect, MTT	MT4	–	0.0056 µM
O=c1cc(-c2ccccc2)oc2cc(O)c(O)c(O)c12	human cytomegalovirus	viral replication, titre reduction	HEL fibroblasts, Towne	–	1.2 ± 0.8 µM
CCOc1ccc(Nc2c3c(nc4ccccc24)CCC3)cc1	Leishmania donovani	–	DD8 resistant line, intracellular amastigotes	–	5.35 ± 0.18 µM
CCCCCCCOc1c(OC)cc(NC(C)CCCNC(=O)C(N)CCSC)c2nc(C(C)(C)C)ccc12 (centres unmarked)	Staphylococcus aureus	microbial growth	ATCC33591 MRSA	drug-resistant strain	3.02 µg/mL
CN(C)c1ccc(C(=C2C=CC(=[N+](C)C)C=C2)c2ccc(N(C)C)cc2)cc1	Plasmodium falciparum	parasite proliferation, SYBR Green	3D7	72 h	0.319 µM
CNC[C@H](O)[C@@H](O)[C@H](O)[C@H](O)CO.[O]=[Sb](=[O])[OH]	Leishmania braziliensis	amastigote growth, microscopic counting	MHOM/BZ/82/M2903	48 h	12.2 ± 2.12 µM
CCCCOc1c(OC)cc(NC(C)CCCN)c2nc(C(C)(C)C)ccc12 (centres unmarked)	Staphylococcus aureus	bacterial growth	MRSA ATCC 33591	–	> 20 µg/mL
COc1cc(-c2oc3cc(O)cc(O)c3c(=O)c2O)ccc1O	Human immunodeficiency virus 1	viral replication	TZM-bl, BAL	48 h	1.77 µM
COc1c(O)cc2oc(-c3ccccc3)cc(=O)c2c1O	Betacoronavirus 1	viral replication	HRT-18, OC43	24 h	18.7 µM
CC(F)(P(=O)(O)O)P(=O)(O)O	Trypanosoma cruzi	–	Vero cells, intracellular amastigotes	day 3 post-infection	> 10 µM
O=C(O)[C@H]1O[C@@H](Oc2cc3oc(-c4ccccc4)cc(=O)c3c(O)c2O)[C@H](O)[C@@H](O)[C@@H]1O	Human betaherpesvirus 5	viral replication, absorbance	human Fibroblast	72 h	3 µM
CCCCCCOc1c(OC)cc(NC(C)CCCNC(=O)C(N)CCCNC(=N)N)c2nc(C(C)(C)C)ccc12 (centres unmarked)	Staphylococcus aureus	microbial growth	ATCC33591 MRSA	drug-resistant strain	8.95 µg/mL
